# Results from different studies.
# A part holds a random share of what one study measured. Substitutions count along the parent as printed.

# Set 1
# Target: RING finger protein unkempt homolog, zinc fingers 1-6, GST-SBP tag (UNK, Homo sapiens, UniProt Q9C0B0, residues 30-357)
# UniProt Q9C0B0, sequence (30-357, looked up): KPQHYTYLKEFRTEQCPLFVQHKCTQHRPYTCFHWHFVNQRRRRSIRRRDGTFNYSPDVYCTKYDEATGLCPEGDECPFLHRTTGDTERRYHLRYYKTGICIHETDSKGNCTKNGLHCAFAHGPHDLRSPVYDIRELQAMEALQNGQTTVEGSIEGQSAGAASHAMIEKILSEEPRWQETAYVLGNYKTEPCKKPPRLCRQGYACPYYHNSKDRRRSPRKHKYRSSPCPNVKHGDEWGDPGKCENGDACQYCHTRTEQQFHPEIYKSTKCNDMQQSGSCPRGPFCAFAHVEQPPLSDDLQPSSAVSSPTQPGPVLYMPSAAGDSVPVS
# Technique: RNA Bind-n-Seq
# Form: RNA
# Medium: in vitro
# Tested at: not given
# Notes: RNA with constant flanks, ends assumed
# Relative to: input RNA pool
# Direction: higher = stronger binding
# Constant ends, left off below: GGGAGUUCUACAGUCCGACGAUC … CAACAGAGGAUUGAGCAUCA
Sequence,bound/input enrichment [ratio]
GCUACUUCUGGUGAUAUUUGGCCUGGCCUUUCAGCUUAUGAUAAUAGUCCAAGGUCACCUCACCGUCCUUCACCUAUUGCUACACCACCCAGUCAGAGUUCAUCAUGCUCAGAUGCCCCC,0.26
UGGGAUGCCUCCACAGAUGCACCUGAAAAGUCUUCUCUCUUUCACCAAGGAGGAAGAAGCCGUACUUUCCUGUCACAUAGCUUAAGUAACCAGGCCGGUGUUCACCAGUCUCUAGUAAGU,0.329
UCUGUCAGAUUGCUUUCAGGGAUCAGGGAAGGUCUGUAGGCAGAAGGUAUGAUGGUGCCCCCGCAGAGUAUGAAACCUUACUCAUUACAGUAAUUAAUUAGGGAAGCAGCCGCAGGCCGU,1.18
UUUCCUGUACCAAGCACCCAGCUCUCCUCUUGUUCUGAAAGGGAUUUCACAUCUUCAGCGCCGCUUCAGUACAUCAUCGGAGGAGUCUGCUGUCCCUAACACAGAGGGAGACCUCGCUUU,0.151
UAUUCAGCCUGGGCAUUGCUCGCUGGGAGAGCCAGACCACCAGGCUCUUCCUCACCCUCCUCCGGAAGUGGUCUUCAGCACUGUUCUGACCCCAGGUGUUACCAGCUGGUUCAUCACAGG,0.133
AUGAACCUGCAGAUAGUGGACAGAGCCAUUCAGGUAGUCCGAAGUGCGUUGGCCAACCAGACCGACUGGACAGAAAUCGGAGUGAUUGUGAAAGAAGCUCAAGCUCAAGGAGACCCGGUU,0.135
UUAGUGAACAGCACUGAUCUCUGUAUAGUCCCCAUCACUAAUGUCAGAACCCAGCGUAUGCCGCAUUUGUAUUGCAGUUUCCCUGGCUUCCUUUACGUUUUGCACUGAUGAAUUUUGACA,0.148
UUUGGUGUUAUCCGGUCACUUAUGGCGUUUAGGCUAACAGGUGGCACCAAAGACUACAUUGCCGUUGGCAGUGACUCAGGCCGGAUUGUUAUCUUGGAAUACCAGCCAUCAAAGAAUAUG,0.801
UAGAAUCUUGUUUUUAGAUUGAAUUUGAAUCUAUAUUUAUUGUCUUUUUGUAUCUUGGAAAUCCGAGAUUUGUUAUAGAUUUACCUGUAUUUGUCAAGAUCAUAGCUGGUUUUAAAAAUG,1.51
ACCUUAGCUGUGGGACUCAUCAACAUGGCAGAGGUGAUGCAACACCCUAAUGAGGGCGCUUCCGUACUUGGCCUGCACAGCAAUGUGAAGGAUGUCUCUGUGCCAGUGGCAGAAAUAAAA,0.142
AUUGCUUCCUGGUAGUGUGGAAGAAACACAAGACCCUCAUUCCCAUUUCCAUUUCCAUUGCCGUCAAAGGUAUUGGCUUAGGUUUCUCCCGUGCUCCUUUCAUCCCCUCCCUGCCUGAGC,0.705

# Set 2
# Target: Sal-like protein 4, full length isoform B (SALL4, Homo sapiens, UniProt Q9UJQ4-2, residues 1-616)
# Technique: universal PBM
# Form: double-stranded DNA, one strand shown
# Medium: in vitro
# Tested at: not given
# Notes: 8-mer, flanks averaged, mean of replicates
# Direction: higher = stronger binding
# Target sequence (chain): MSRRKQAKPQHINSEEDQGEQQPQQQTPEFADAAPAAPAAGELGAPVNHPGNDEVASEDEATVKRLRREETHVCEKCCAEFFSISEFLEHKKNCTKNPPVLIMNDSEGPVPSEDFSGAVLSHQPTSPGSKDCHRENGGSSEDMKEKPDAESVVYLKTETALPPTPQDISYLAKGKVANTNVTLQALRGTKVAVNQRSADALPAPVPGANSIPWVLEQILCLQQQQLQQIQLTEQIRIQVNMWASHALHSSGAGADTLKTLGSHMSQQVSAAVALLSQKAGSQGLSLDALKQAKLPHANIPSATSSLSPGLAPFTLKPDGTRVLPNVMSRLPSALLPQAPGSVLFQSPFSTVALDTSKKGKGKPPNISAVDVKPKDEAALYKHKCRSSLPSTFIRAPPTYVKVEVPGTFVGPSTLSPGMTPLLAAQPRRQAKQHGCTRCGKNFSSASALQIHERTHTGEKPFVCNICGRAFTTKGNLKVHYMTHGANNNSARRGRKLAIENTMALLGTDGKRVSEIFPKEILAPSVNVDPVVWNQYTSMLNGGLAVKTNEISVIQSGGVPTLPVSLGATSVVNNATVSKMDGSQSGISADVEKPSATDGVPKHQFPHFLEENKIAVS
Sequence,E-score
AACCCTAG,0.039
CTCAGGTA,-0.0607
TGGCCGAA,-0.135
ACCGAGGC,-0.313
AGAGGAAG,-0.186
CCATCCGC,-0.184
ACCCTTCC,-0.0975
CTCAGACA,-0.0317
ACTCCCGA,-0.176
CCTGAATC,0.0609
AATAGATG,0.142
GAGTTTTA,0.107
ACGACACG,-0.0418
ACTGGATG,-0.117
CTGCACTC,-0.25
AAGATACA,0.264
GATCCCGC,-0.229
CGCCCCCA,-0.177
TACTATGA,0.235
AGCCCCTA,-0.252

# Set 3
# Target: RNA binding protein fox-1 homolog 2, RRM domain, GST-SBP tag (RBFOX2, Homo sapiens, UniProt O43251-10, residues 100-194)
# Technique: RNA Bind-n-Seq
# Form: RNA
# Medium: in vitro
# Tested at: 365 nM
# Notes: natural RNA segment, single round, ends assumed
# Relative to: no-protein control
# Direction: higher = stronger binding
# Constant ends, left off below: GGGAGUUCUACAGUCCGACGAUC … UGGAAUUCUCGGGUGCCAA
# Construct (chain): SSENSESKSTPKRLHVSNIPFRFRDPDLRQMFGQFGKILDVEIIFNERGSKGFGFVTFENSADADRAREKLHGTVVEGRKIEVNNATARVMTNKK
Sequence,RBNS enrichment (R)
GCAGUUAUGUGCCCGCUCUGGUGAUGGCCCCAGCCAGUGAUGCUAGGCCUAAUUGUUCAUCAUCAAGCCGGCGACUCAUGUGGUGCCUGCCCUAGGCGUGGCCUGCGGUC,1.21
CUGUCAUUACCAGUUGUGGUCCUAGCAUCUAACCCUGAAACCAUCCUAGGUGACAUUUUUAGAAUUAAUACUUAAAUGUUAAACAGGGGGAAAUGAAGCUUAAUCAUGGU,0.354
GGCCUGGGGGGGAUGGUAUAUGGCCCUUUCCCCACCAGGCGCUAAGGGGAACACCCCCUUCCCCAGGUCUUUUAUUUGUUUAAGUUAUUUUUGCACAAAUGACUCUUUUA,0.405
UGGCUAUUGCCAAUUCCCCACUGCAAAGGGGAAGGCAGAUUUUAUGAAGAGUUUUAGGAAUAAAUACAUUUUAUAGAAUGGAAACCCAGUAUGGUACUGGGGAAGUUUAU,0.467
UAGAAGUAUUACAGAGAAUCAUCCUUUUAAUCACAGAUCUUAUUUUGGAGUAAAACAAACUUCUAGCUUUAGCCAGGUGUGCAUGUUGUCGCCAUUUGCAUUUUGAGUCA,21.9
GGACCUCAAGUAGACUGCUCCUUGUACUUGAAGCGCUUACCUUUUGAUUUCCUGACUUUAUGUUCUUGUGUUAUAAUGUUAUCCUAACCUCCAAAGAUAUUUGCACUGCU,0.885
GUUAAUGGAUGUAAUGCAGGGUUCCUACACUGUAUUGGCGCAUGUUGGUGGCCCUCUGUGCCCUAAGCAUAUGCACAUGGGGCACAUACACAGCUACAGAGUGAGAGUUG,5.82
AAGUCUCCUCCUCUGACUGGUUUCAGGAAAUCAAGAAGUUUGAAUCACAUACUCAUUUUACUUGAAAUUAUGUCACUAGACAACUUAUAUUUUGGAGUCUUGAGAUUGUU,0.278
CUUGCAGUACUGCCUGCCGUUGGUAAGCAGUGGCAUCCGAAGGCAGGAACCCUGAUGAGCCCUCACGUGCCUGUCCUUGACCAAGGUGACUUUUAUGCUGUGGCAACUGU,0.41
CUCAACAGUCUGUGUGAUCCCAAAGCCAUUCCACUGUAAAUGCCUGGCAGUAAAGAUGGCCCCAGACUGGGUUCCUGCCUGCAGUGUGUGUGGCGGUAGCCCAUGUGCCU,0.564
UAAGGCCCUGUCAUUAAUUCCAUGUGUCAAUACUGCCCUGUAGUACACAGAGCAGACAAGAAAGAAGAGCCCUUGAAAACAAGGGAAUGAUUUUUGAGUCGUUAUCAAGC,0.256
UAUCGGUUCUCAAUAAAUUACUGAGCAGCUUUGUUUGGGGAGGGAAGUCCCUACCAUCCUUGUUUAGUCUAUAUUAAGAAAAUCUGUGUCUUUUUAAUAUUCUUGUGAUG,0.585

# Set 4
# Target: CCNF, cyclin fold, Cln2 fusion (human)
# Technique: yeast growth competition, sequencing
# Medium: yeast
# Notes: strong parent motif
# Relative to: not given
# Direction: higher = stronger binding
# Parent: ORC1 docking peptide (human); PRARKRLELGNLG
Change,normalised enrichment score
PRARKRLELGCLG [N11C],4.61
PRARKRLELGNLH [G13H],3.51
PRARKRLYLGNLG [E8Y],3.94
PRRRKRLELGNLG [A3R],1.57
PRIRKRLELGNLG [A3I],2.02
PRARKRLELMNLG [G10M],2.33
PRARKRLELPNLG [G10P],2.21
PRARKRLEEGNLG [L9E],0.894
GRARKRLELGNLG [P1G],2.29
PRARNRLELGNLG [K5N],0.872
QRARKRLELGNLG [P1Q],3.61
PRARKSLELGNLG [R6S],0.269
PRARKRLELGNLP [G13P],4.24
PRAHKRLELGNLG [R4H],1.37
PRARKRLERGNLG [L9R],1.4
ARARKRLELGNLG [P1A],3.13
PRARGRLELGNLG [K5G],2.05
PRARKRLELGTLG [N11T],3.89
PRARKRLELGNLW [G13W],4.05
PRARKFLELGNLG [R6F],3.24
PRWRKRLELGNLG [A3W],2.06
PRARKRLELGHLG [N11H],3.89
PRARKRLELGNDG [L12D],3.65
PRARKRLCLGNLG [E8C],1.76
PRDRKRLELGNLG [A3D],0.118

# Other studies, line by line
Molecule,target,assay,test system,conditions,how to read,measurement,value
"PhoQ, residues 284 288 289 292 302 303 NLGVHL","PhoP, residues 12 14 15 18 19 SGWQI (Escherichia coli, UniProt P23836)","Sort-seq, measured: YFP reporter",E. coli,"PhoQ-PhoP variant library, added: 10 µM Mg2+","relative to: high Mg2+ state, higher = stronger signaling",fold induction,10.6

# Repeated from above (set 2):
Sequence,E-score
AACCCTAG,0.039
CTCAGGTA,-0.0607
TGGCCGAA,-0.135
ACCGAGGC,-0.313
AGAGGAAG,-0.186
CCATCCGC,-0.184
ACCCTTCC,-0.0975
CTCAGACA,-0.0317
